Assay results from different studies.
Each line is one published result; not all experiments were run side by side.
SMC5: SMC5 (Saccharomyces cerevisiae, UniProt Q08204)
UniProt Q08204, sequence (whole entry, looked up): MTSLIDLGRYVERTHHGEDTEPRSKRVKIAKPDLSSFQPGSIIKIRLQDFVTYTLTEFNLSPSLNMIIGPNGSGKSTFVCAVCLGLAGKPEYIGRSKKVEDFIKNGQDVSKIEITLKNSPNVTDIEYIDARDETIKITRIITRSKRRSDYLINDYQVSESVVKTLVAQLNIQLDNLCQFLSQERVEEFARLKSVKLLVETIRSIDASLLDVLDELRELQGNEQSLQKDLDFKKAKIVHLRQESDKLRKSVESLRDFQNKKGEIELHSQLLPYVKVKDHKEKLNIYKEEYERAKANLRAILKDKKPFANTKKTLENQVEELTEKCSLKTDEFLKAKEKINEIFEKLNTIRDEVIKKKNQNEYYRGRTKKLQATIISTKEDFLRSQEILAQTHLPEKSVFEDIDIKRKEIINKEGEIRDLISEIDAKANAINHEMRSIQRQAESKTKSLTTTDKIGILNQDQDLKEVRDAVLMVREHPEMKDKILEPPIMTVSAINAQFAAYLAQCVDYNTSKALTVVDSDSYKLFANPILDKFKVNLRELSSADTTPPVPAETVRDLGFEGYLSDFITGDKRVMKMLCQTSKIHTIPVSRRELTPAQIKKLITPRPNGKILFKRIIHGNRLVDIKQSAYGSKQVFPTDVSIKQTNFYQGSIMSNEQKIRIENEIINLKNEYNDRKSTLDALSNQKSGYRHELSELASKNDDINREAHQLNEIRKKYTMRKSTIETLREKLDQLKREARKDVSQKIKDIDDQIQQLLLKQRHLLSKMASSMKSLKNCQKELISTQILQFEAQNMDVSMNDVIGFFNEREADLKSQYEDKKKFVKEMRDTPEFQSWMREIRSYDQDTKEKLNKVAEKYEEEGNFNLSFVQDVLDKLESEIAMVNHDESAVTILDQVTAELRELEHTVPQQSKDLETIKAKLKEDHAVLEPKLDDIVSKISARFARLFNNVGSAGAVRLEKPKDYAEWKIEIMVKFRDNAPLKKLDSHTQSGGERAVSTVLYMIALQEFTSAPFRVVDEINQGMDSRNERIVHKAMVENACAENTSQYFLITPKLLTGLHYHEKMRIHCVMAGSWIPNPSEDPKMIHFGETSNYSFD
MCM6: MCM6 (Saccharomyces cerevisiae, UniProt P53091)
UniProt P53091, sequence (whole entry, looked up): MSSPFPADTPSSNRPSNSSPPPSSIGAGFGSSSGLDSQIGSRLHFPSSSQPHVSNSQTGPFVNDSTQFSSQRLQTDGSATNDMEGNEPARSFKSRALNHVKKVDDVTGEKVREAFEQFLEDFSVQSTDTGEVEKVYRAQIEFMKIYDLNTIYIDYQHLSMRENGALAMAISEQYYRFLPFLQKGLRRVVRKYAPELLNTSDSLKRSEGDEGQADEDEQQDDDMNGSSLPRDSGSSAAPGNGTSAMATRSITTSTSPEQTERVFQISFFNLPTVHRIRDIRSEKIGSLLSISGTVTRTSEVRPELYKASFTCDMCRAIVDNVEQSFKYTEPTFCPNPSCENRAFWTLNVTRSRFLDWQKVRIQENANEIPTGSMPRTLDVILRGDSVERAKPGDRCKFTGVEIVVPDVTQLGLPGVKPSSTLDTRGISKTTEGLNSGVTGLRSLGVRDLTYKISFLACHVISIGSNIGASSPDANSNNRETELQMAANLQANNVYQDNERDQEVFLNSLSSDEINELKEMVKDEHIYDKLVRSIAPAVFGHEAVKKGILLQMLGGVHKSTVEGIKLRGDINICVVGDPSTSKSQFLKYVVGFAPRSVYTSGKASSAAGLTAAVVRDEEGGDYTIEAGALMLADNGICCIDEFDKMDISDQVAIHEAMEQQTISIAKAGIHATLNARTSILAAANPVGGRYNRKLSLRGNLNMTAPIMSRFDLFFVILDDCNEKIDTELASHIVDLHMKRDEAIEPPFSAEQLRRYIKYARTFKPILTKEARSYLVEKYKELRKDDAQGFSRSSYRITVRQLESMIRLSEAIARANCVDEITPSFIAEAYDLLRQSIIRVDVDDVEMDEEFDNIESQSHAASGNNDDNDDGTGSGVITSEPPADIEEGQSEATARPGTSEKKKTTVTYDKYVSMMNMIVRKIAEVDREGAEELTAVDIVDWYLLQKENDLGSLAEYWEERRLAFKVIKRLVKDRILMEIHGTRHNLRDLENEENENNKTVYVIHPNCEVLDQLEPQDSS
ORC3: ORC3 (Saccharomyces cerevisiae, UniProt P54790)
UniProt P29496, sequence (whole entry, looked up): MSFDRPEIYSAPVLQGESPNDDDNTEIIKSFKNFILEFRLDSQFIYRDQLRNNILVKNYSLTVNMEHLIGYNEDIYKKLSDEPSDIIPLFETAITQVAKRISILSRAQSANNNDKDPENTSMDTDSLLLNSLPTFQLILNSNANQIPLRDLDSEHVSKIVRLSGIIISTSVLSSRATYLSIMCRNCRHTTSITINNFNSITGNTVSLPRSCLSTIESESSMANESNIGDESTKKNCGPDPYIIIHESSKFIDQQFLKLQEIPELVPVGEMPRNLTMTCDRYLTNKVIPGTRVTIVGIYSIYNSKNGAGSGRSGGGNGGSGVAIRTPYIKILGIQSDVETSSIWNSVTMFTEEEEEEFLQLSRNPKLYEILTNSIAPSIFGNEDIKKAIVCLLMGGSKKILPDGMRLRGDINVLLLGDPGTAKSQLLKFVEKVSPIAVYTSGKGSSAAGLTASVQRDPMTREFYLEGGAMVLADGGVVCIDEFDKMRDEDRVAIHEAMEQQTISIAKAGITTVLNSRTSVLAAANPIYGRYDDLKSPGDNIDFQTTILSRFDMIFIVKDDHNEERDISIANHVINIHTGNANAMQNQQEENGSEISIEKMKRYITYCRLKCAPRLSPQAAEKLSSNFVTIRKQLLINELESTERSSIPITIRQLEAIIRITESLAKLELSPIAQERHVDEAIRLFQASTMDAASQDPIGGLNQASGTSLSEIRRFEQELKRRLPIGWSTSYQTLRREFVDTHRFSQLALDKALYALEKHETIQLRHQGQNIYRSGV
UniProt P30665, sequence (whole entry, looked up): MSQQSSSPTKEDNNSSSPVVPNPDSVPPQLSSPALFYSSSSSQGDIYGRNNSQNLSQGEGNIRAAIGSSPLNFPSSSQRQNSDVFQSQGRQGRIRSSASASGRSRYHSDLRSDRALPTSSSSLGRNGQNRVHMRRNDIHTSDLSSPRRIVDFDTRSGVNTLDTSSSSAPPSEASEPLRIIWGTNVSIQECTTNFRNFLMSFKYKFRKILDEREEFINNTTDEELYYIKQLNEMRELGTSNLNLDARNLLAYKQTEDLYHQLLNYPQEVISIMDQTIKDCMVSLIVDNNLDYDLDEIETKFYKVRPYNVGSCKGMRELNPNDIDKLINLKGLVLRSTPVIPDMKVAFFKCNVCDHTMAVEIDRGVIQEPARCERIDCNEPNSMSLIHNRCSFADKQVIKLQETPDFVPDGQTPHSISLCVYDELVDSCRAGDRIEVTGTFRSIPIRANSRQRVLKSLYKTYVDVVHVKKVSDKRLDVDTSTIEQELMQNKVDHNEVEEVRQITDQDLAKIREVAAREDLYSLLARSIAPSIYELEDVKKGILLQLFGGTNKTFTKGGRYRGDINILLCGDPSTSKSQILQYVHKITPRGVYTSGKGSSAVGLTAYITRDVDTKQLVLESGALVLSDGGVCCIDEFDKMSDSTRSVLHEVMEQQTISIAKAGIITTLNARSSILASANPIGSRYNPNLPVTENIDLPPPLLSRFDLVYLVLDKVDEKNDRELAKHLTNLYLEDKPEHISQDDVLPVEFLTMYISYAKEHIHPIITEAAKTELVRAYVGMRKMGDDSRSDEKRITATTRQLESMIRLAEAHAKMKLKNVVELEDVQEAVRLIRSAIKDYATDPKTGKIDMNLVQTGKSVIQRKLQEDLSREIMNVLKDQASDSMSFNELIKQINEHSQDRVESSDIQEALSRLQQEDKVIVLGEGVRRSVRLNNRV
UniProt P54790, sequence (whole entry, looked up): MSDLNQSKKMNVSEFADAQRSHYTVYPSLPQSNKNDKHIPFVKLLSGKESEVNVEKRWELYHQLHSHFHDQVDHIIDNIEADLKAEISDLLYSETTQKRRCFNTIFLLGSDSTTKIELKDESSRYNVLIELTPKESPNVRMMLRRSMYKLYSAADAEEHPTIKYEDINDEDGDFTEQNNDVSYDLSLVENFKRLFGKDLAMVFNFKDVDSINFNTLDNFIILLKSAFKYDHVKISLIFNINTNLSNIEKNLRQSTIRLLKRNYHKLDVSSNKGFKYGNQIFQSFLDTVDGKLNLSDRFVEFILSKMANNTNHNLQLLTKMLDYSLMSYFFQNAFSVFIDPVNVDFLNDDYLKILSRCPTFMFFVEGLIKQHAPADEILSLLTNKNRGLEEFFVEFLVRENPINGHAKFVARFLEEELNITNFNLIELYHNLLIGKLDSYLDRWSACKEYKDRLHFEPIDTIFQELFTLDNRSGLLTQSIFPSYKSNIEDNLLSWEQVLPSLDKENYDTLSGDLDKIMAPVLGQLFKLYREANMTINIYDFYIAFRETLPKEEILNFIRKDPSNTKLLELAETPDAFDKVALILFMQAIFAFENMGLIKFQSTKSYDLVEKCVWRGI
UniProt P50874, sequence (whole entry, looked up): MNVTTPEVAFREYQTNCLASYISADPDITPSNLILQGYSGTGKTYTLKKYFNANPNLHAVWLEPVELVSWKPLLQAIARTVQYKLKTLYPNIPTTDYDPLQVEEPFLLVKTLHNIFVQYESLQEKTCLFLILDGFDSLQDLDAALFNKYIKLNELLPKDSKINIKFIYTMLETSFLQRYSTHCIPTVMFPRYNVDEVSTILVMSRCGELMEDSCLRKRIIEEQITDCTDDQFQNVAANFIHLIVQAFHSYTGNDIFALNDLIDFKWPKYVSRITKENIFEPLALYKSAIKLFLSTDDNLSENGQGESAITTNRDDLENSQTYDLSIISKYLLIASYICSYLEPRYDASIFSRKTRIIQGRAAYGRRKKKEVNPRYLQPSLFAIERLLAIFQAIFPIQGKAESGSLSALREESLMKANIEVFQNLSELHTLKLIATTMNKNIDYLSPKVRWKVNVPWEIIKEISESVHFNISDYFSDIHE

| Substance | target or system | assay | system | conditions | how to read | endpoint | value |
| --- | --- | --- | --- | --- | --- | --- | --- |
| NSE3 (Saccharomyces cerevisiae, UniProt Q05541) | SMC5 | cross-linking MS |  | hits only |  | interaction screen | cross-linked |
| MCM3 (Saccharomyces cerevisiae, UniProt P24279) | MCM5 (Saccharomyces cerevisiae, UniProt P29496) | cross-linking MS |  | hits only |  | interaction screen | cross-linked |
| GSGAGKETRV | human MAGI1-3/6 PDZ construct (MBP fusion) | automated holdup | peptide, crude extract | concentration not given, corrected by standard peak, unit not given | relative to: biotin control resin, higher = stronger binding | binding intensity | 0.506 |
| NSE4 (Saccharomyces cerevisiae, UniProt P43124) | NSE1 (Saccharomyces cerevisiae, UniProt Q07913) | cross-linking MS |  | hits only |  | interaction screen | cross-linked |
| TAH11 (Saccharomyces cerevisiae, UniProt P47112) | MCM6 | cross-linking MS |  | hits only |  | interaction screen | cross-linked |
| colistin | Enterobacter cloacae | broth microdilution | clinical isolate RKI-No_766/15 |  |  | MIC | ≤ 0.5 µg/mL |
| KRT8 (Homo sapiens, UniProt P05787) | KRT7 (Homo sapiens, UniProt P08729) | cross-linking MS |  | hits only |  | interaction screen | cross-linked |
| MCM5 (Saccharomyces cerevisiae, UniProt P29496) | MCM4 (Saccharomyces cerevisiae, UniProt P30665) | cross-linking MS |  | hits only |  | interaction screen | cross-linked |
| TUBA1A (Sus scrofa, UniProt P02550) | TUBB (Sus scrofa, UniProt P02554) | cross-linking MS |  | hits only |  | interaction screen | cross-linked |
| MCM5 (Saccharomyces cerevisiae, UniProt P29496) | MCM6 | cross-linking MS |  | hits only |  | interaction screen | cross-linked |
| MCM4 (Saccharomyces cerevisiae, UniProt P30665) | MCM7 (Saccharomyces cerevisiae, UniProt P38132) | cross-linking MS |  | hits only |  | interaction screen | cross-linked |
| ORC2 (Saccharomyces cerevisiae, UniProt P32833) | ORC3 | cross-linking MS |  | hits only |  | interaction screen | cross-linked |
| HHF1 (Saccharomyces cerevisiae, UniProt P02309) | HTA1 (Saccharomyces cerevisiae, UniProt P04911) | cross-linking MS |  | hits only |  | interaction screen | cross-linked |
| MCM2 (Saccharomyces cerevisiae, UniProt P29469) | CDC45 (Saccharomyces cerevisiae, UniProt Q08032) | cross-linking MS |  | hits only |  | interaction screen | cross-linked |
| MYL12A (Homo sapiens, UniProt P19105) | MYH9 (Homo sapiens, UniProt P35579) | cross-linking MS |  | hits only |  | interaction screen | cross-linked |
| H2AC11 (Homo sapiens, UniProt P0C0S8) | H3-3A (Homo sapiens, UniProt P84243) | cross-linking MS |  | hits only |  | interaction screen | cross-linked |
| MCM3 (Saccharomyces cerevisiae, UniProt P24279) | MCM2 (Saccharomyces cerevisiae, UniProt P29469) | cross-linking MS |  | hits only |  | interaction screen | cross-linked |
| GSGAGPETLV | human MAGI1-3/6 PDZ construct (MBP fusion) | automated holdup | peptide, crude extract | concentration not given, uncorrected, unit not given | relative to: biotin control resin, higher = stronger binding | binding intensity | 0.613 |
| NSE5 (Saccharomyces cerevisiae, UniProt Q03718) | SMC5 | cross-linking MS |  | hits only |  | interaction screen | cross-linked |
| ORC5 (Saccharomyces cerevisiae, UniProt P50874) | ORC3 | cross-linking MS |  | hits only |  | interaction screen | cross-linked |
| H2BC18 (Homo sapiens, UniProt Q5QNW6) | H2AC18 (Homo sapiens, UniProt Q6FI13) | cross-linking MS |  | hits only |  | interaction screen | cross-linked |
| KRE29 (Saccharomyces cerevisiae, UniProt P40026) | SMC5 | cross-linking MS |  | hits only |  | interaction screen | cross-linked |
| MCM4 (Saccharomyces cerevisiae, UniProt P30665) | MCM6 | cross-linking MS |  | hits only |  | interaction screen | cross-linked |
| H2AZ1 (Homo sapiens, UniProt P0C0S5) | Histone H3.1 (Homo sapiens, UniProt P68431) | cross-linking MS |  | hits only |  | interaction screen | cross-linked |
| PSF3 (Saccharomyces cerevisiae, UniProt Q12146) | PSF1 (Saccharomyces cerevisiae, UniProt Q12488) | cross-linking MS |  | hits only |  | interaction screen | cross-linked |
| CDC6 (Saccharomyces cerevisiae, UniProt P09119) | ORC1 (Saccharomyces cerevisiae, UniProt P54784) | cross-linking MS |  | hits only |  | interaction screen | cross-linked |

Excerpt of the above:
| Substance | target or system | assay | system | conditions | how to read | endpoint | value |
| --- | --- | --- | --- | --- | --- | --- | --- |
| ORC5 (Saccharomyces cerevisiae, UniProt P50874) | ORC3 | cross-linking MS |  | hits only |  | interaction screen | cross-linked |
| H2BC18 (Homo sapiens, UniProt Q5QNW6) | H2AC18 (Homo sapiens, UniProt Q6FI13) | cross-linking MS |  | hits only |  | interaction screen | cross-linked |
| KRE29 (Saccharomyces cerevisiae, UniProt P40026) | SMC5 | cross-linking MS |  | hits only |  | interaction screen | cross-linked |
